Measured values pooled from the literature.
Lines come from different studies, so protocols differ. ± marks the error that the study gave.
ampC: Beta-lactamase (ampC, Escherichia coli K-12, UniProt P00811)
Chain of UniProt P00811 (whole entry, looked up): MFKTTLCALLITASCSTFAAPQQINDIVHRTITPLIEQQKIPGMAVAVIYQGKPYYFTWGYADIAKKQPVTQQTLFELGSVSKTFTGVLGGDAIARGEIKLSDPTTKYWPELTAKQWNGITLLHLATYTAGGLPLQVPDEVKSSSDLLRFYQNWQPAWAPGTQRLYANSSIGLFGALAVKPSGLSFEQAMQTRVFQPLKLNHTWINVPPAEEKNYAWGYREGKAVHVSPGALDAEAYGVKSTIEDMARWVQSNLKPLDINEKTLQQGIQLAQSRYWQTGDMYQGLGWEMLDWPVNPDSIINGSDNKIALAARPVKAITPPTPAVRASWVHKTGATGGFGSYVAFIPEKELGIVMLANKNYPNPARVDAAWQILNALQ
Oprk1: Kappa-type opioid receptor (Oprk1, Rattus norvegicus, UniProt P34975)
Chain of UniProt P34975 (whole entry, looked up): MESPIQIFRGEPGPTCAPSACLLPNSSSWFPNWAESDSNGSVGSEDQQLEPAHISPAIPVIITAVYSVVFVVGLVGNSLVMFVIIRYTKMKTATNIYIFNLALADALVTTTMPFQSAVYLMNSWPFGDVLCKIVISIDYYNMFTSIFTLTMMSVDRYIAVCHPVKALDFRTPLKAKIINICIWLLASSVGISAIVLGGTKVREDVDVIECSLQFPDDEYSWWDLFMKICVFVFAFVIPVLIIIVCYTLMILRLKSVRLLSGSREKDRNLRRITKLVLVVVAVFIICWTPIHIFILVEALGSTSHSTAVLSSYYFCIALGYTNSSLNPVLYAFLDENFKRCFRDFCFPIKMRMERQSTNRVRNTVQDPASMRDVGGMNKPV
BRD4: Bromodomain-containing protein 4 (BRD4, Homo sapiens, UniProt O60885)
Chain of UniProt P30085 (whole entry, looked up): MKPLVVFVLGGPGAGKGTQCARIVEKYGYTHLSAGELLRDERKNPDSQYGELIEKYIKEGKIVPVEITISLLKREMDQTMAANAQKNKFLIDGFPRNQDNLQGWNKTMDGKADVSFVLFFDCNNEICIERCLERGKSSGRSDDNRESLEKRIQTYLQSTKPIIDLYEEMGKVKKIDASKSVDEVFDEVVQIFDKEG
Chain of UniProt P08191 (whole entry, looked up): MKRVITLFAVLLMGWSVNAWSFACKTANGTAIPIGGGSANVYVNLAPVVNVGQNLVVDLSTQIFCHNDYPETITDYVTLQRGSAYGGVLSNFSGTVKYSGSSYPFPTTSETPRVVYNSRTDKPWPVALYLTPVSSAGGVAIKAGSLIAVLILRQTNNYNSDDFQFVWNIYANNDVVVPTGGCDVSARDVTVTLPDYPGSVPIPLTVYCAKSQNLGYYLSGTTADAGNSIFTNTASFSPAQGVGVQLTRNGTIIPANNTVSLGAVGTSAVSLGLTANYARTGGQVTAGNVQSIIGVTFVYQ
Chain of UniProt P0C0V0 (whole entry, looked up): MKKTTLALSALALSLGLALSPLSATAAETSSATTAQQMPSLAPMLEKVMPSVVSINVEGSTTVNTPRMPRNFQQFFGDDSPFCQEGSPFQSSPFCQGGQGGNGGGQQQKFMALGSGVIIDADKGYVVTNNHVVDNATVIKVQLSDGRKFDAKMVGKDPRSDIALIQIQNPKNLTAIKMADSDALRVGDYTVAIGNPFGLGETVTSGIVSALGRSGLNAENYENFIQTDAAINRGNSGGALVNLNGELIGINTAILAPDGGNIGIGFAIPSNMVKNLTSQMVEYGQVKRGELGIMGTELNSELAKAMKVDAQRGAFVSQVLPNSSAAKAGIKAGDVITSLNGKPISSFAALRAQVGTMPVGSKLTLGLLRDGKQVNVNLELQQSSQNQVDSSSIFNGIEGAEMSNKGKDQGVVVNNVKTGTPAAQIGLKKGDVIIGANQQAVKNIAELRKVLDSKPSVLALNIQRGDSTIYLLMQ
Chain of UniProt O60502 (whole entry, looked up): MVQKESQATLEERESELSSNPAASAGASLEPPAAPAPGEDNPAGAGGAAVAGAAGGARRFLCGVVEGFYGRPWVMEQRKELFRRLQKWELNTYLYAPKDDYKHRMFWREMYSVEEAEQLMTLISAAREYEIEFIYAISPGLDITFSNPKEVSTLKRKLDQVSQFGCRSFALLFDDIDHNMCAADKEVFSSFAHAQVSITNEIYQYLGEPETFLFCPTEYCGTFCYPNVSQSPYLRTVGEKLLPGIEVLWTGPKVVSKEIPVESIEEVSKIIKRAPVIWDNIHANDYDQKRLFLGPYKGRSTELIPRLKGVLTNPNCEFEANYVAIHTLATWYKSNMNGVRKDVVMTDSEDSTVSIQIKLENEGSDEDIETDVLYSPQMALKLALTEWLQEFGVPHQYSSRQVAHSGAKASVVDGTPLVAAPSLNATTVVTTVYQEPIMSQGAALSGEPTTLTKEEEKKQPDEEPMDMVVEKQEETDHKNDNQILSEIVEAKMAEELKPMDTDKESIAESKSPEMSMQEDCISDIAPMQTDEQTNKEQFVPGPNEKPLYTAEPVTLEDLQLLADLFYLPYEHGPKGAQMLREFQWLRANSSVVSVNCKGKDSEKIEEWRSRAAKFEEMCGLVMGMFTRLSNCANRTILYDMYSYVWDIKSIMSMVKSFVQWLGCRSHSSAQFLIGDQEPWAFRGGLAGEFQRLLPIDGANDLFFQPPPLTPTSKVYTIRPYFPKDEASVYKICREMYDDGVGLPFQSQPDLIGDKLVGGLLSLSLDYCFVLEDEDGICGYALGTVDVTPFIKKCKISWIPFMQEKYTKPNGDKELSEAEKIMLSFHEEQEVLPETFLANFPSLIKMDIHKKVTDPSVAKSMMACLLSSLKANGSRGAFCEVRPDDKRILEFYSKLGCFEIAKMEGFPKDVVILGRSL
Chain of UniProt P21564 (whole entry, unmodified, looked up): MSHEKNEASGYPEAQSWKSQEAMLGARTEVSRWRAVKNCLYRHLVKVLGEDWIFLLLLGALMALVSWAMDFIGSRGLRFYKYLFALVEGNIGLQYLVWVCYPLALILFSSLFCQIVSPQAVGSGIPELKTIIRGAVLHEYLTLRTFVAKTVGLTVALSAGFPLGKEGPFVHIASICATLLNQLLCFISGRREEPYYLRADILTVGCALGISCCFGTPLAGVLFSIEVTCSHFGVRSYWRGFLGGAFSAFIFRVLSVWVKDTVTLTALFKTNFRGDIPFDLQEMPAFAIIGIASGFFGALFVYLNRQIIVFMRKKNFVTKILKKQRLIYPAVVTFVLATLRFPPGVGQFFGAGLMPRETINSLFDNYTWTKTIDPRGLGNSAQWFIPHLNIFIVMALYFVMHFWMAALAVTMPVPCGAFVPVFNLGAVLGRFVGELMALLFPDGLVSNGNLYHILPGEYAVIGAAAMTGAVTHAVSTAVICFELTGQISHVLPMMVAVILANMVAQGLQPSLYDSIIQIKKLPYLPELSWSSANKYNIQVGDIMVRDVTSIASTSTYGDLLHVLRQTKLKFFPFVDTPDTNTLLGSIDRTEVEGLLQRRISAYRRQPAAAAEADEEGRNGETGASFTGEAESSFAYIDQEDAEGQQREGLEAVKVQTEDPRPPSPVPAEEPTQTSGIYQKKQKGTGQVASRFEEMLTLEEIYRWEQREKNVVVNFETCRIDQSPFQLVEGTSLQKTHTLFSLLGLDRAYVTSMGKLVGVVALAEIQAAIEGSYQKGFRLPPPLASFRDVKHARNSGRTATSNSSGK
Chain of UniProt O66465 (whole entry, looked up): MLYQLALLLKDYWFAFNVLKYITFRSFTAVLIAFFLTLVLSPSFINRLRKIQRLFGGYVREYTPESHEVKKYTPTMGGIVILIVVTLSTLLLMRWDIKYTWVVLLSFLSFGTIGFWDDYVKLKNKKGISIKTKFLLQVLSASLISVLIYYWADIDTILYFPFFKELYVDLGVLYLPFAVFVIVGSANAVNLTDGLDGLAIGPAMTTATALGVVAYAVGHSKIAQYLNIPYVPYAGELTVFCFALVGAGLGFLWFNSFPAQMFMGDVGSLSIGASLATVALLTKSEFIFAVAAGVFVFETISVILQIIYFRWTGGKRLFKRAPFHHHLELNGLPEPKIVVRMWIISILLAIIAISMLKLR
Chain of UniProt A0R016 (whole entry, looked up): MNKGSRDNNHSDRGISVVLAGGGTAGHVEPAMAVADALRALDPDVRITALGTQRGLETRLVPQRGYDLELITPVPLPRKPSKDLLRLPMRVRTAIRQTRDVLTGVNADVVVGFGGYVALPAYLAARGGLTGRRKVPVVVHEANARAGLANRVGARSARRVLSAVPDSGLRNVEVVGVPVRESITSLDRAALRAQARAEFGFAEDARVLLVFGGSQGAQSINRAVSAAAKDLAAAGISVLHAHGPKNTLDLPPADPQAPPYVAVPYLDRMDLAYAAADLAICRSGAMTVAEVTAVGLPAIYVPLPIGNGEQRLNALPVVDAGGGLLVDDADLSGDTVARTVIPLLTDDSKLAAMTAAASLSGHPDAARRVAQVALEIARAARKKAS

SMILES | target | test | system | setting | scale | endpoint | value
O=C(O)C1C2C=CC(C2)C1C(O)=S (stereo not drawn) | ampC |  |  |  |  | ligand efficiency | 0.33
CC(C)C[C@H](NC(=O)[C@H](CO)NC(=O)[C@H](Cc1ccc(O)cc1)NC(=O)CNC(=O)[C@H](CCCNC(=N)N)NC(=O)[C@H](Cc1ccc(O)cc1)NC(=O)[C@H](CC(N)=O)NC(=O)[C@@H](N)CC(=O)O)C(=O)NCC(=O)N[C@@H](CC(N)=O)C(=O)N[C@@H](Cc1c[nH]c2ccccc12)C(=O)N[C@H](C(=O)N[C@@H](CO)C(=O)N[C@@H](C)C(=O)N[C@@H](C)C(=O)N[C@@H](CCCCN)C(=O)N[C@@H](Cc1ccccc1)C(=O)N[C@@H](CCC(=O)O)C(=O)N[C@@H](CO)C(=O)N[C@@H](CC(N)=O)C(=O)O)C(C)C | Periplasmic serine endoprotease DegP (degP, Escherichia coli, UniProt P0C0V0) | reporter cleavage, activator |  | with: protease 1 µM, reporter 100 µM |  | concentration for maximal activation | 100 to 200 µM
CNC(=O)c1cccc(-c2ccc(O[C@H]3O[C@H](CO)[C@@H](O)[C@H](O)[C@@H]3O)c(C)c2)c1 | Type 1 fimbrin D-mannose specific adhesin, lectin domain (fimH, Escherichia coli K-12, UniProt P08191) | binding, differential scanning fluorimetry |  |  | higher = stronger binding | melting temperature | 75.5 °C
C[C@H](NC(=O)CNC(=O)CNC(=O)[C@H](Cc1ccc(O)cc1)NCc1ccccc1)C(=O)N[C@@H]1CC(=O)NC[C@@H](C(=O)N[C@@H](CCCNC(=N)N)C(=O)N2CCC[C@H]2C(=O)N[C@@H](CCCCN)C(N)=O)NC(=O)[C@H](CCCNC(=N)N)NC(=O)[C@H](CCCNC(=N)N)NC1=O | Oprk1 | binding |  |  | baseline: zyklophin | affinity fold decrease | 42 fold
Nc1nc(N)c2ncn([C@@H]3O[C@@H]4COP(=O)(O)O[C@H]5[C@@H](O)[C@H](n6cnc7c(N)nc(N)nc76)O[C@@H]5COP(=O)(O)O[C@H]4[C@H]3O)c2n1 | ydaO riboswitch wild type (Bacillus subtilis) | competition gel-shift |  | concentration not given | baseline: c-di-AMP, higher = weaker binding | binding affinity fold loss | > 2.7e+06
[N-]=[N+]=N[C@H]1[C@@H](O)[C@H](COP(=O)(O)O)O[C@@H]1n1ccc(N)nc1=O | UMP-CMP kinase (Homo sapiens, UniProt P30085) | enzyme activity, substrate, coupled spectrophotometric |  |  | baseline: D-CMP | relative Vmax | 0.36 ± 0.02%
Cc1sc2c(c1C)C(c1ccc(Cl)cc1)=NC(CC(=O)NCCCNC(=O)OC1CCC=CCCC1)c1nnc(C)n1-2 (stereo not drawn) | BRD4 | degrader, immunoblot | HeLa | concentration not given |  | protein level | no effect
CC(=O)N[C@@H](Cc1c[nH]c2ccccc12)C(=O)N[C@@H](CCC(=O)O)C(=O)N[C@@H](Cc1c[nH]cn1)C(=O)N[C@@H](CC(=O)O)C(=O)Nc1ccc2c(C)cc(=O)oc2c1 | Caspase-7 (CASP7, Homo sapiens, UniProt P55210) | substrate cleavage, substrate, fluorogenic AMC release |  | enzyme 0.25 activity units/µL |  | Vmax | 32.3 ± 4.07 RFU/min
C[C@@]12CC[C@H]3[C@@H](CCC4=CC(=O)C=C[C@@]43F)[C@@H]1CCC2=O | Aldo-keto reductase family 1 member C1 (AKR1C1, Homo sapiens, UniProt Q04828) | enzyme activity, inhibitor, absorbance |  | 10 µM, pH 9 |  | inhibition | 7.1%
N#CC1(c2ccc3c(N)ncnn23)OC(COP(=O)(O)OP(=O)(O)OP(=O)(O)O)C(O)C1O (stereo not drawn) | Albumin (ALB, Homo sapiens, UniProt P02768) | binding, native ESI-FT-ICR MS |  | 3 µM, saturation curve |  | bound fraction | 0.9227 ± 0.0067
C[C@]1(COC(=O)Cc2ccc(O)c(O)c2)[C@H](C(=O)O)N2C(=O)/C(=C/c3ccccn3)[C@H]2S1(=O)=O | Beta-lactamase OXA-23 (OXA-23, Acinetobacter baumannii, UniProt Q9L4P2) | enzyme activity, inhibitor, absorbance |  |  |  | kinact | 0.041 s⁻¹
Cc1sc2c(c1C)C(c1ccc(Cl)cc1)=N[C@@H](CC(=O)NCCCNC(=O)c1ccc(F)c([N+](=O)[O-])c1)c1nnc(C)n1-2 | BRD4 | degrader | Jurkat |  |  | Dmax | 87%
CC(=O)N[C@H]1[C@H](O[C@H]2[C@H](O[C@H](C)C(=O)N[C@@H](C)C(=O)N[C@H](CCC(=O)N[C@@H](CCCCNC(=O)OCCCCCCNC(=S)Nc3ccc(NS(=O)(=O)c4cccc5c(N(C)C)cccc45)cc3)C(=O)N[C@H](C)C(=O)N[C@H](C)C(=O)O)C(=O)O)[C@@H](NC(C)=O)[C@@H](OP(=O)(O)OP(=O)(O)OC/C=C(/C)CC/C=C(/C)CC/C=C(/C)CC/C=C(/C)CC/C=C(/C)CC/C=C(/C)CC/C=C(/C)CC/C=C(/C)CC/C=C(\C)CC/C=C(\C)CCC=C(C)C)O[C@@H]2CO)O[C@H](CO)[C@@H](O)[C@@H]1O | UDP-N-acetylglucosamine--N-acetylmuramyl-(pentapeptide) pyrophosphoryl-undecaprenol N-acetylglucosamine transferase (murG, Mycolicibacterium smegmatis, UniProt A0R016) | substrate | P-60 membrane fraction |  |  | Vmax | 0.98 µM/min
CC(C)CC(NC(=O)C(NC(=O)NC(C(=O)O)C(C)C)C1CCNC(=N)N1)C(=O)NCCCNC(C(=O)O)C(OC1OC(CN)C(O)C1O)C1OC(n2ccc(=O)[nH]c2=O)C(O)C1O (stereo not drawn) | Phospho-N-acetylmuramoyl-pentapeptide-transferase (mraY, Aquifex aeolicus, UniProt O66465) | isothermal titration calorimetry |  | concentration not given, wild type, with: Mg2+ |  | binding stoichiometry | 0.62 ± 0.02
CC(=O)NC(Cc1ccc(Br)c(Cl)c1)C(=O)N[C@@H](C)C(=O)N1CCC[C@H]1C(=O)N1CCC[C@H]1C(=O)N[C@@H](CCC(=O)O)C(=O)N[C@@H](Cc1c[nH]cn1)C(=O)N[C@@H](CO)C(=O)N[C@H](C(=O)N[C@@H](C)C(N)=O)[C@@H](C)OP(=O)(O)O (stereo partly drawn) | Testis-specific serine/threonine-protein kinase 1 (TSSK1B, Homo sapiens, UniProt Q9BXA7) | enzyme activity, inhibitor |  | 10 µM |  | inhibition | 0.18%
CN1C(=O)C2(Cc3ccc(CC45SSC(CO)(C(=O)N4C)N(C)C5=O)cc3)SSC1(CO)C(=O)N2C (racemic) | Histone acetyltransferase p300, CH1 domain (EP300, Homo sapiens, UniProt Q09472) | SPR |  | p300 CH1 domain GST fusion, with: DTT 100 µM |  | dissociation rate constant | 0.0038 s⁻¹
CCCCCCCCCCCCCCCc1ccc(C(O)P(=O)(O)O)cc1 (racemic) | Autotaxin (ENPP2, Homo sapiens, UniProt Q13822) |  |  | enzyme substrate complex |  | Ki′ | 700 nM
O=C(O)COc1ccc(Cl)cc1 | Chloride channel protein (Torpedo marmorata, UniProt P21564, C212S) | inside-out patch |  | 1 mM, -80 mV |  | single-channel current amplitude | 0.42 pA
CC(C)C[C@H](NC(=O)[C@H](CCCNC(=N)N)NC(=O)[C@H](Cc1ccccc1)NC(=O)[C@H](Cc1ccccc1)NC(=O)[C@H](Cc1ccccc1)N(C)C(=O)COc1ccccc1)C(=O)N[C@@H](CCCNC(=N)N)C(=O)N[C@@H](CCCNC(=N)N)C(=O)N[C@H](C)C(=O)N[C@@H](CCCNC(=N)N)C(=O)N1CCC[C@H]1C(=O)N[C@@H](CCCCN)C(N)=O | Oprk1 | agonist | CHO cells | 10 µM | baseline: dynorphin A(1-13) amide | adenylyl cyclase activity | 98 ± 21%
Cc1cccc(Nc2c3c(nc4ccccc24)CCC(C)C3)n1 (stereo not drawn) | Acetylcholinesterase (ache, Electrophorus electricus, UniProt O42275) | enzyme activity, inhibitor, Ellman |  | 100 µM |  | inhibition | 15.2%
COc1ccc2cc1Oc1ccc(cc1)C[C@H]1c3cc(c(OC)cc3CC[N@+]1(C)Cc1ccc3ccc4cccc5ccc1c3c45)Oc1c(OC)c(OC)cc3c1[C@H](C2)[N@@+](C)(Cc1ccc2ccc4cccc5ccc1c2c45)CC3 | poly(dA)·poly(dT) 18-bp dsDNA | DNA binding, ethidium bromide displacement | phosphate buffer, 10% DMSO | pH 7.2, 25 °C, dsDNA 10 µM, 10 mM NaCl, with: ethidium bromide 5 µM |  | Stern-Volmer constant | 13400 M⁻¹
O=C(/C=C/c1ccccc1)c1cc2ccccc2oc1=O | Beta-secretase 1 (BACE1, Homo sapiens, UniProt P56817) | enzyme activity, inhibitor, fluorescence |  | 10 µM |  | remaining activity | 74.6%
CC(=O)N[C@H]1c2nc(CCc3ccccc3)cn2[C@H](CO)[C@@H](O)[C@@H]1O | Protein O-GlcNAcase (OGA, Homo sapiens, UniProt O60502) |  |  |  | baseline: over GlcNAcstatin A | potency ratio | ~10 fold
CC(C)Oc1ccc(B(O)O)c(F)n1 | ampC |  |  |  |  | ligand efficiency | 0.61

A few entries again:
SMILES | target | test | system | setting | scale | endpoint | value
CC(=O)N[C@H]1[C@H](O[C@H]2[C@H](O[C@H](C)C(=O)N[C@@H](C)C(=O)N[C@H](CCC(=O)N[C@@H](CCCCNC(=O)OCCCCCCNC(=S)Nc3ccc(NS(=O)(=O)c4cccc5c(N(C)C)cccc45)cc3)C(=O)N[C@H](C)C(=O)N[C@H](C)C(=O)O)C(=O)O)[C@@H](NC(C)=O)[C@@H](OP(=O)(O)OP(=O)(O)OC/C=C(/C)CC/C=C(/C)CC/C=C(/C)CC/C=C(/C)CC/C=C(/C)CC/C=C(/C)CC/C=C(/C)CC/C=C(/C)CC/C=C(\C)CC/C=C(\C)CCC=C(C)C)O[C@@H]2CO)O[C@H](CO)[C@@H](O)[C@@H]1O | UDP-N-acetylglucosamine--N-acetylmuramyl-(pentapeptide) pyrophosphoryl-undecaprenol N-acetylglucosamine transferase (murG, Mycolicibacterium smegmatis, UniProt A0R016) | substrate | P-60 membrane fraction |  |  | Vmax | 0.98 µM/min
CC(C)CC(NC(=O)C(NC(=O)NC(C(=O)O)C(C)C)C1CCNC(=N)N1)C(=O)NCCCNC(C(=O)O)C(OC1OC(CN)C(O)C1O)C1OC(n2ccc(=O)[nH]c2=O)C(O)C1O (stereo not drawn) | Phospho-N-acetylmuramoyl-pentapeptide-transferase (mraY, Aquifex aeolicus, UniProt O66465) | isothermal titration calorimetry |  | concentration not given, wild type, with: Mg2+ |  | binding stoichiometry | 0.62 ± 0.02
CC(=O)NC(Cc1ccc(Br)c(Cl)c1)C(=O)N[C@@H](C)C(=O)N1CCC[C@H]1C(=O)N1CCC[C@H]1C(=O)N[C@@H](CCC(=O)O)C(=O)N[C@@H](Cc1c[nH]cn1)C(=O)N[C@@H](CO)C(=O)N[C@H](C(=O)N[C@@H](C)C(N)=O)[C@@H](C)OP(=O)(O)O (stereo partly drawn) | Testis-specific serine/threonine-protein kinase 1 (TSSK1B, Homo sapiens, UniProt Q9BXA7) | enzyme activity, inhibitor |  | 10 µM |  | inhibition | 0.18%
